Assay results of several laboratories.
± marks the error that the study gave.

Substance | test | test system | setting | how to read | quantity | result
NC(=O)CN[C@H]1CCCNC1 | capillary electrophoresis-MS | water | – | – | pKa2 | 8.53
O=C(CCc1ccccc1)c1ccccc1OCC(O)CN1CCN(C(c2ccccc2)c2ccccc2)CC1 (stereo not shown) | metabolic stability | female mouse, liver microsomes | 20 µM, pH 7.4 | – | scaled CLint | 69.7 mL/min/kg
C[C@@H](c1ccc2nccn2c1)n1nnc2ncc(-c3cnn(C)c3)nc21 | refers to: AEs possibly related to any treatment | EGFR-mutant MET-altered NSCLC patients | oral, dose not given, all | – | AEs leading to discontinuation | 28%
O=C(CCCN1CCC(O)(c2ccc(Cl)cc2)CC1)c1ccc(F)cc1 | – | male Hartley guinea pig, anaesthetized | intravenous infusion, 1 mg/kg, 10 min infusion | relative to: baseline | QTc change | 15.8 ± 3.6%
Clc1ccccc1C(c1ccccc1)(c1ccccc1)n1ccnc1 | shake-flask | polysorbate 80 | 37 °C | – | thermodynamic solubility | 51.1 ± 3.18 mg/g
CCCC[C@H](NC(C)=O)C(=O)N[C@H]1CCC(=O)NC[C@@H](C(=O)N[C@@H](Cc2c[nH]c3ccccc23)C(N)=O)NC(=O)[C@H](CCCNC(=N)N)NC(=O)[C@@H](Cc2ccccc2)NC(=O)[C@H](Cc2c[nH]cn2)NC1=O | – | beagle dog, female, plasma | subcutaneous, 8.0 mg/kg daily, day 14 | – | Cmax | 547 ng/mL
CNCc1ccc(-c2[nH]c3cc(F)cc4c3c2CCNC4=O)cc1 | – | human patients, plasma | oral, 840 mg twice daily, day 1, 12 h, arithmetic mean | – | AUC(0-t) | 13.2 µg·h/mL
C[C@H](Oc1ccc(-c2nc(-c3ccc4[nH]cnc4c3)no2)cc1C(F)(F)F)C(F)(F)F | – | cynomolgus monkey, aneurysm model, plasma | 0.1 mg/kg once daily, 8 h post-dose, 12 months dosing | – | plasma concentration | 23 ± 1.8 nM
Cc1c(Cl)cccc1Nc1ccccc1C(=O)O | shake-flask | PEG400 | 37 °C | – | thermodynamic solubility | 46.8 ± 7 mg/g
CSc1cc(C)nc(SC)c1NC(=O)CN1CCN(CCSc2nc3ccccc3[nH]2)CC1 | – | mouse Crl:CD1 (ICR) female, cerebrum | intranasal repeated, 32.4 µg in 0.01 N HCl, 15 min | – | concentration | 8.9 ng/g
COc1cc(C)c(/C=C/C(C)=C/C=C/C(C)=C/C(=O)O)c(C)c1C | shake-flask | Captex 355 | 37 °C | – | thermodynamic solubility | 0.24 ± 0.01 mg/g
CC[C@H](C)[C@H](NC(=O)[C@H](CS)NC(=O)[C@H](CCCNC(=N)N)NC(=O)[C@H](CCCNC(=N)N)NC(=O)[C@H](CC(N)=O)NC(=O)[C@H](CCCNC(=N)N)NC(=O)[C@H](CS)NC(=O)[C@@H](NC(=O)[C@@H](NC(=O)[C@@H](NC(=O)[C@H](CS)NC(=O)[C@H](CCCCN)NC(=O)[C@@H](N)CCCNC(=N)N)C(C)C)[C@@H](C)CC)C(C)C)C(=O)N[C@H](C(=O)N[C@@H](CC(C)C)C(=O)N[C@@H](CS)C(=O)N[C@@H](CCCNC(=N)N)C(=O)O)[C@@H](C)CC | LC/MS | PBS | 0.1 mg/mL | relative to: LC peak area | two-disulfide form | 100%
CC(C)NC[C@@H](C(=O)N1CCN(c2ncnc3c2[C@H](C)C[C@H]3O)CC1)c1ccc(Cl)cc1 | – | human, Severe hepatic function, plasma | oral, 100 mg single dose, NCI classification, geometric mean | – | AUC(0-72 h) | 0.627 µg·h/mL
CCCC[C@@H]1NC(=O)[C@@H](NC(=O)[C@H](CCC(=O)O)NC(=O)CNC(=O)CN2CCN(CC(=O)O)CCN(CC(=O)O)CCN(CC(=O)O)CC2)CCCCNC(=O)C[C@@H](C(N)=O)NC(=O)[C@H](C(C)C)NC(=O)[C@@H]2CCCN2C(=O)[C@H](CCCNC(=N)N)NC(=O)CNC(=O)[C@H](Cc2c[nH]c3ccccc23)NC(=O)[C@H](CCCNC(=N)N)NC(=O)[C@@H](Cc2ccccc2)NC(=O)[C@H](Cc2c[nH]cn2)NC(=O)[C@H](CCC(=O)O)NC1=O [indium-111 labelled] | – | normal C57 mice, pancreas | intravenous, 0.037 MBq, 24 h | – | tissue uptake | 0.06 ± 0.01 %ID/g
CCCCCCCCCCCCCCCCCCOP(=O)([O-])OC1CC[N+](C)(C)CC1 | – | rhesus monkey, male, plasma | oral, 7 mg/kg, single dose, mean of 3 | – | AUC(0-inf) | 1570 µg·h/mL
CC(=O)O[C@@]12CO[C@@H]1C[C@H](O)[C@@]1(C)C(=O)[C@H](O)C3=C(C)[C@@H](OC(=O)[C@H](O)[C@@H](NC(=O)OC(C)(C)C)c4ccccc4)C[C@@](O)([C@@H](OC(=O)c4ccccc4)[C@H]21)C3(C)C | HPLC-MS/MS | rat plasma | storage and freeze-thaw | – | stability | stable
CO[C@H]1C[C@@H]2CC[C@@H](C)[C@@](O)(O2)C(=O)C(=O)N2CCCC[C@H]2C(=O)O[C@H]([C@H](C)C[C@@H]2CC[C@@H](O)[C@H](OC)C2)CC(=O)[C@H](C)/C=C(\C)[C@@H](O)[C@@H](OC)C(=O)[C@H](C)C[C@H](C)/C=C/C=C/C=C/1C | LC-MS/MS | healthy dogs, whole blood | oral, 0.1 mg/kg once daily, 5 days | – | AUC(0-48h) | 0.126 ± 0.0271 µg·h/mL
O=C(O)CNC(=O)c1ccccc1 | – | human hemodialysis patients, plasma | pre-treatment | relative to: hemodialysis over normal subjects | total plasma concentration ratio | 31
acyl ghrelin (human) | – | Ghsr knockout mice, whole brain | intravenous, dose not given, 10 min, vascular space corrected | – | tissue/serum ratio | 5.48 µL/g
